Published values gathered from unrelated publications.
“And” joins repeats or separate records; there may be more than shown. pEC50, pKi: −log10 of the molar value. In brackets after ≈: the same amount, converted by molar mass.

Nc1cc(-c2ccncc2)c[nH]c1=O  inhibition (Nedd8-cullin1 interaction; neddylation, AlphaScreen; 100 µM): -13.1%
N#Cc1ccc2c(-c3ccncc3)c(-c3ccc(F)cc3)nn2c1  log2 fold change (Pom1 kinase Candida albicans; MIB/MS competition binding; Candida albicans cell lysate; 100 nM; baseline: DMSO, lower = stronger binding): -0.458
[O]=[Mo](=[O])([OH])[OH]  Km (sulfate/chloride exchanger, human; neutrophils; external binding site): 45.8 mM
CCC(C)CNCC(=O)N1CCc2sccc2C1COc1cccc(C)c1 (stereo not drawn)  myristoylation (c-Src; inhibitor; cells, COS-1, expressing c-Src; concentration not given): inactive
Cc1n[nH]c2ccc(-c3cc(OC[C@@H](N)Cc4ccccc4)cnc3-c3ccoc3)cc12  log2 fold change (Pom1 kinase Candida albicans; MIB/MS competition binding; Candida albicans cell lysate; 10 µM; baseline: DMSO, lower = stronger binding): -2.53
O=CO  pKi (sulfate/chloride exchanger, human; sulfate influx, inhibitor; neutrophils; external site, with: 2 µM nigericin, 85 mM K+): 1.09
COC(=O)[C@@H]1CC2=CC(=O)CC[C@]2(C)[C@@]23O[C@@H]2C[C@@]2(C)[C@@H](CC[C@@]24CCC(=O)O4)[C@H]13  inhibition (Nedd8-cullin1 interaction; neddylation, AlphaScreen; 100 µM): 22.4%
Oc1ccccc1-c1n[nH]cc1-c1ccnc2ccccc12  log2 fold change (SAT4 (Candida albicans); kinase binding, MIB/MS competition; Candida albicans lysate; 10 µM; baseline: DMSO): -0.09
CCOc1ccc(N(C)S(=O)(=O)c2cc(Cl)sc2C(=O)Nc2cc(Cl)cc(C(=O)O)c2)cc1OC  pEC50 (nuclear hormone receptors; binding): < 4.60
Cn1c(=O)c(F)c(Nc2ccc(I)cc2F)c2c(=O)n(C[C@@H](O)CO)cnc21  kynurenine production (TDO2 human; inhibitor; A-172; 1 µM): 9.5%
COc1nnc2ccc(N3CCC(c4ccc(OCCN5CCN(C)C(=O)[C@H]5C)cc4)CC3)nn12  dose with strong target engagement (BRD4 (human); qPCR, refers to: BRD4 target genes; cancer patients, peripheral blood): ≥ 10 mg
Cc1c(CN2CCN(C(=O)[C@H](C)O)CC2)sc2c(N3CCOCC3)nc(-c3cnc(N)nc3)nc12  IC50 (phospho-Akt; Akt phosphorylation, inhibitor; human patients with epithelioid mesothelioma, plasma; PK-PD study): 9.3 ng/mL (≈ 0.0187 µM)
COc1ccc(CCNCC(O)COc2cccc(C)c2)cc1OC (stereo not drawn)  inhibition (Nedd8-cullin1 interaction; neddylation, AlphaScreen; 100 µM): 87.9%
c1coc(-c2n[nH]cc2-c2ccnc3ccccc23)c1  log2 fold change (orf19.4144 Candida albicans; kinase binding, MIB/MS competition; Candida albicans lysate; 1 µM; baseline: DMSO): -0.27
O=C(O)[C@H]1OC(O)[C@H](O)[C@@H](O)[C@@H]1O (mixture of isomers)  Km (sulfate/chloride exchanger, human; neutrophils; external binding site): > 20 mM
[Ca+2]  desensitization time constant (human TRPA1 W1103A; ion current, two-electrode voltage clamp; Xenopus oocytes; +80 mV, with: AITC): 258 s and 336 s and 229 s and 211 s and 238 s and 466 s
O=C(O)CC(O)(CC(=O)O)C(=O)O  pKi (sulfate/chloride exchanger, human; sulfate influx, inhibitor; neutrophils; external site, with: 2 µM nigericin, 85 mM K+): ~1.10
O=C(NCCO[N+](=O)[O-])c1cccnc1  inhibition (Nedd8-cullin1 interaction; neddylation, AlphaScreen; 100 µM): 41.4%
N#Cc1ccn2c(-c3ccncc3)c(-c3ccc(F)cc3)nc2c1  log2 fold change (Pom1 kinase Candida albicans; MIB/MS competition binding; Candida albicans cell lysate; 100 nM; baseline: DMSO, lower = stronger binding): -0.222
C#Cc1cc(-c2cc(Nc3nc(N[C@@H](C)c4ccc(F)cn4)ncc3Cl)n[nH]2)ccc1C=O  number of kinase hits (panel of 416 human kinases; kinase activity; 200 nM, hit threshold 20): 59
C[N+](C)(C)Cc1cccc(N=Nc2cccc(C[N+](C)(C)C)c2)c1  rate constant (muscarinic potassium conductance, frog; ion current; atrial trabeculae; 20 µM, 22-24 °C, flash relaxation, with: carbachol 5 µM): 3.23 s⁻¹
C[n+]1cccc2cc(C=NNC(=O)c3ccc4ccc5ccc(C(=O)NN=Cc6ccc7c(ccc[n+]7C)c6)nc5c4n3)ccc21.[I-].[I-]  ΔTm (hairpin duplex DNA; UV melting; 1 molar equivalents, DNA 3 µM): 0.9 °C
CNCCc1ccccn1  inhibition (Nedd8-cullin1 interaction; neddylation, AlphaScreen; 100 µM): 24.5%
CC(=O)Nc1cccc(-n2c(=O)n(C3CC3)c(=O)c3c(Nc4ccc(I)cc4F)n(C)c(=O)c(C)c32)c1  kynurenine production (TDO2 human; inhibitor; A-172; 1 µM): 14.1%
CCOc1nc2cccc(C(=O)O)c2n1Cc1ccc(-c2ccccc2-c2nc(=O)o[nH]2)cc1  inhibition (Nedd8-cullin1 interaction; neddylation, AlphaScreen; 100 µM): -43.5%
O=C(NN=Cc1ccc(C[n+]2ccccc2)cc1)c1ccc2ccc3ccc(C(=O)NN=Cc4ccc(C[n+]5ccccc5)cc4)nc3c2n1.[Br-].[Br-]  ΔTm (hairpin duplex DNA; UV melting; 2 molar equivalents, DNA 3 µM): 0.8 °C
CC(C)(Sc1cc(C(C)(C)C)c(O)c(C(C)(C)C)c1)Sc1cc(C(C)(C)C)c(O)c(C(C)(C)C)c1  inhibition (Nedd8-cullin1 interaction; neddylation, AlphaScreen; 100 µM): 9.2%
c1ccc(-c2n[nH]cc2-c2ccnc3ccccc23)nc1  log2 fold change (Pom1 kinase Candida albicans; MIB/MS competition binding; Candida albicans cell lysate; 100 nM; baseline: DMSO, lower = stronger binding): 1.43
NCCCCCC(=O)O  inhibition (Nedd8-cullin1 interaction; neddylation, AlphaScreen; 100 µM): 11.8%
[Br-].[K+]  Km (sulfate/chloride exchanger, human; neutrophils; external binding site): 37.9 mM
